Published values gathered from unrelated publications.
Each numbered part is a random draw from the data of one study; scales do not carry over between parts.

Sample 1
Target: Sal-like protein 4, full length isoform A (SALL4, Homo sapiens, UniProt Q9UJQ4, residues 1-1053)
UniProt Q9UJQ4, sequence (whole entry, looked up): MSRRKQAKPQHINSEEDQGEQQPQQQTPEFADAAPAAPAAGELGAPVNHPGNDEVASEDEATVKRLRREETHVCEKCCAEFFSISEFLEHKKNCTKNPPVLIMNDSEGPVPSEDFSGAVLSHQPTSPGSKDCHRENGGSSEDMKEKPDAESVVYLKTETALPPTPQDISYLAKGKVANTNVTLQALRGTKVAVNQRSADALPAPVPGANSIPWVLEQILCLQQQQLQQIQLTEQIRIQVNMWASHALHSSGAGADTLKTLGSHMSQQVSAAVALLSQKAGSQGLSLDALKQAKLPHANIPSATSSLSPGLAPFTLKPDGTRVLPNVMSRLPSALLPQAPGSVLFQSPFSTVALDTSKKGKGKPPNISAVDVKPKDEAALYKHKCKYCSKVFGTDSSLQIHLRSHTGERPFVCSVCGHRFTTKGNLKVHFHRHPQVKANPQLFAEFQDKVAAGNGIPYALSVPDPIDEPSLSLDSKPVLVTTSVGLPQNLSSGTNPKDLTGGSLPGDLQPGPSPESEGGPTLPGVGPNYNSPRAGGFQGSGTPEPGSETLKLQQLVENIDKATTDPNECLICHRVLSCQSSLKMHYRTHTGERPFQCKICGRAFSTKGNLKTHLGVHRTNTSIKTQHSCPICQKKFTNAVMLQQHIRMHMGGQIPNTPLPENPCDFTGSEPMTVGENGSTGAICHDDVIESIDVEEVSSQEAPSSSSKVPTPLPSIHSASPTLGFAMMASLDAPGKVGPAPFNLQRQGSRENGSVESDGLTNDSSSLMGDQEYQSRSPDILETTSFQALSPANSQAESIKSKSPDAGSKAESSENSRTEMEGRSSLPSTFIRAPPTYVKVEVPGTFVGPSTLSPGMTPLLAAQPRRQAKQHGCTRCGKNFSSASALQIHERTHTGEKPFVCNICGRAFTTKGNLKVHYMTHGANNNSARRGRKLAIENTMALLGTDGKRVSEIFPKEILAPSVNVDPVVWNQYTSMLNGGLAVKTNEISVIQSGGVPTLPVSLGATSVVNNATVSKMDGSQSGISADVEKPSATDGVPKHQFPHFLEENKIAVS
Technique: universal PBM
Molecule type: double-stranded DNA, one strand shown
Matrix: in vitro
Tested at: 600 nM
Setting: 8-mer, flanks averaged, mean of replicates
Direction: higher = stronger binding
`ATAATCCG` has an E-score of 0.193.
With `AACGTAAT` the E-score was 0.292.
For `ACGATGGA`, the E-score was 5.5e-05.
`GCGTTGTA` gave an E-score of 0.0975.
`GATGTGCC` gave an E-score of -0.0981.
For `CGTTCGTC`, the E-score was -0.0885.
The E-score of `ACTCCGTA` is reported as -0.0958.
The E-score of `CCGTCCTA` is reported as -0.00294.
`CGTGGTAA` gave an E-score of 0.054.
`TGCTAGCA` gave an E-score of -0.0209.
`TCCACGGA` has an E-score of 0.0794.
The E-score of `ACGCGAAT` is reported as 0.0724.
With `CACCCTCG` the E-score was -0.301.
For `AAACCTCG`, the E-score was -0.166.
With `ACGTTAAC` the E-score was 0.0935.
The E-score of `GCGGCTAA` is reported as -0.0727.
With `TCCCGTCA` the E-score was -0.0509.
With `CCCATTGC` the E-score was -0.0918.
For `CAAAGAGC`, the E-score was -0.141.
For `TCCGAGCA`, the E-score was -0.139.
With `CGTCTCCC` the E-score was -0.189.
`AACGAAGT` gave an E-score of 0.191.
`TGACAAAA` has an E-score of 0.284.
For `ATCCGCAG`, the E-score was -0.152.
`AAAGTAGA` gave an E-score of 0.173.

Sample 2
Target: PABPC1L2, full length, GST fusion (mouse, UniProt A0ABA7IW68)
Technique: RNAcompete
Molecule type: RNA
Matrix: in vitro
Tested at: 20 nM
Setting: 7-mer, probes averaged, single round
Relative to: mean of 7-mers
Direction: higher = stronger binding
Construct (chain): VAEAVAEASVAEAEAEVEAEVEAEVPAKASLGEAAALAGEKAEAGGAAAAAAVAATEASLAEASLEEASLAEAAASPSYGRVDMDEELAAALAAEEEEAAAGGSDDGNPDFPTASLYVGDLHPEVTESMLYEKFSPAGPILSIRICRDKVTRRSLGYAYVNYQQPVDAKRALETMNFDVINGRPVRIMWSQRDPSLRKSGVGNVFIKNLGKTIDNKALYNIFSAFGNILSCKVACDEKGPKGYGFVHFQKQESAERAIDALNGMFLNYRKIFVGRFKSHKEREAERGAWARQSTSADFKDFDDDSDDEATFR
With `UUAAACC` the 7-mer Z-score was 0.0805.
`CUGUAUU` has a 7-mer Z-score of -0.309.
With `CUGCAUG` the 7-mer Z-score was -0.139.
`UCAGCUA` gave a 7-mer Z-score of -0.2.
With `GUCGAAA` the 7-mer Z-score was 0.227.
`UAUCAUU` gave a 7-mer Z-score of -0.277.
`UGGUUAA` has a 7-mer Z-score of -0.211.
`AUACUCG` has a 7-mer Z-score of -0.233.
`GGUACCG` has a 7-mer Z-score of -0.277.
For `GUUUAGU`, the 7-mer Z-score was -0.441.
`GGGACAA` gave a 7-mer Z-score of 0.722.
For `AAGCGAU`, the 7-mer Z-score was 0.1.
`GCGCAGU` gave a 7-mer Z-score of -0.295.
The 7-mer Z-score of `AAACGCA` is reported as 0.573.
With `CCUCGUA` the 7-mer Z-score was -0.354.
The 7-mer Z-score of `UUCCACA` is reported as -0.148.
For `AGUCCGA`, the 7-mer Z-score was -0.0699.
The 7-mer Z-score of `UCGAUUU` is reported as -0.322.
`UUCUCAA` has a 7-mer Z-score of -0.32.

Sample 3
Target: Fragile X messenger ribonucleoprotein 1, C-terminal low-complexity region (Fmr1, Mus musculus, UniProt P35922)
Technique: RNA Bind-n-Seq
Molecule type: RNA
Matrix: in vitro
Tested at: 200 nM
Setting: whole 134-nt RNA, ends assumed
Added: 150 mM KCl
Relative to: input library
Direction: higher = stronger binding
The log2 enrichment of `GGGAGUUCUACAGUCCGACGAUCUUAAGAAUUUGCUUAAAGAAGUGCGGAUCUAUGCACAGAAAUUUAUUGAUCGAGGAAAGGAUUUUAACUUGGAGUUGGCAAUUAAAACACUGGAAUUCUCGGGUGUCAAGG` is reported as 0.123.
`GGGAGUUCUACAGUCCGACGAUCUCCUCAAGUCCUGUGCUACACAUCGUAUGUACCGAAUCGGCGGGCGGGCGGAAAGUAUUAUGUUACGCCGUUCGGAUCUGCACUUCCAGCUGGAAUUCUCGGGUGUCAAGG` gave a log2 enrichment of -0.0989.
`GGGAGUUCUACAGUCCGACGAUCAAGUCCUGUGCUACACAUCGUAUGUACCGAAUCGGGGCCCGGCCCGGGGCCCGGGGAAAGUAUUAUGUUACGCCGUUCGGAUCUGCACUUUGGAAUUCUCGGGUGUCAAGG` has a log2 enrichment of -1.09.
`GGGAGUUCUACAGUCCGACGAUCCAAGUCCUGUGCUACACAUCGUAUGUACCGAAUCGGGUGGGAAAGGGUUUUUGGGAAAGUAUUAUGUUACGCCGUUCGGAUCUGCACUUCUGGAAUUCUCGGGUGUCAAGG` has a log2 enrichment of 0.748.
With `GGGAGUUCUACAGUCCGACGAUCAGUCCUGUGCUACACAUCGUAUGUACCGAAUCGGGAGGGUUUUUUUGGGUUUUUGGGAAAGUAUUAUGUUACGCCGUUCGGAUCUGCACUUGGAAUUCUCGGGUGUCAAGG` the log2 enrichment was 0.217.
The log2 enrichment of `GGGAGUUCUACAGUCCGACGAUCCACAGACAACACGCACCCACACAGACACAGAGGGAAGGGGUUGGGAUGGGGACAGGGUGCACAGCAGGGCGGGGUAGGACCCCAGCCCAUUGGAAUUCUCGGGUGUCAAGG` is reported as 1.37.
For `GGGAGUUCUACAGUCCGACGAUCAAGUCCUGUGCUACACAUCGUAUGUACCGAAUCGGCCCCGGGCCCCGGGCCCCGGGAAAGUAUUAUGUUACGCCGUUCGGAUCUGCACUUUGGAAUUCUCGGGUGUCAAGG`, the log2 enrichment was -0.796.
With `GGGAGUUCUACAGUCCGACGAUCGUCCUGUGCUACACAUCGUAUGUACCGAAUCGGAAAAAAGGAAAAAAGGGGAAAAAAGGAAAGUAUUAUGUUACGCCGUUCGGAUCUGCAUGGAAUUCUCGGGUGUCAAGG` the log2 enrichment was -0.465.
`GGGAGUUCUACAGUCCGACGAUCGUCCUGUGCUACACAUCGUAUGUACCGAAUCGGGGUUUUGGGUUUUGGGGUUUUGGGGAAAGUAUUAUGUUACGCCGUUCGGAUCUGCACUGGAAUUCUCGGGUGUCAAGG` gave a log2 enrichment of 0.506.

Sample 4
Target: RNA binding protein fox-1 homolog 2, RRM domain, GST-SBP tag (RBFOX2, Homo sapiens, UniProt O43251-10, residues 100-194)
Technique: RNA Bind-n-Seq
Molecule type: RNA
Matrix: in vitro
Tested at: 365 nM
Setting: natural RNA segment, single round, ends assumed
Relative to: no-protein control
Direction: higher = stronger binding
Construct (chain): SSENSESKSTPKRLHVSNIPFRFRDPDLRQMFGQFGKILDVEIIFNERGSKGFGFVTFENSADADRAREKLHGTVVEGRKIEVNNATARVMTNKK
For `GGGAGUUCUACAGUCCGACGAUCACUGUGGGUGAAAUGUUCUACACACCACACACUAGGCCAUUUUCAGAUCAGCAGUCACCCAUCGCUUAGCAUAGAAAUCCCAAAACCUCCAGCCCGGGAACACUAUAAGCUGGAAUUCUCGGGUGCCAA`, “RBNS enrichment (R)” read 0.303.
`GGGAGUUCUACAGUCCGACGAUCUCAUUUAACUUGGCUCACUUCUCUUCAGACUUGGGUAGAAGUGCAGAGCCACAGAAUUGCUUUCCUUCCCCGCCUUUGACAUGAGGCCUUCAGUAAAGAGCUACAGAACAUGGAAUUCUCGGGUGCCAA`: “RBNS enrichment (R)” 0.414.
`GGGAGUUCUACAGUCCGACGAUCUGACUGCAAAGCCCUGGGUACUUGCCUUCAUGUUCUGGUUUGGUUUUCCCUUUUUCUGCUGCUCUUGGCAGCAGCCUGGUCAUCAUCUGCUUGUGGGAGUGGGAAAUGGGUGGAAUUCUCGGGUGCCAA` — result for “RBNS enrichment (R)”: 0.664.
`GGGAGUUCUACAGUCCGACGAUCGCUGCUUUCACGGCUGUUGUUCAGUGCCUGCGGCUUUUCCAGGUGCACGGUGCAAGCUGUUGGUGGAUCUACCAUUCUGGGGUCUGGAGGACGGUGGCCCUCUUCUCACAUGGAAUUCUCGGGUGCCAA`: “RBNS enrichment (R)” 0.406.
`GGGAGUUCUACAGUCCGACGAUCUUCAUGUGUAAUAGCUCAAAUGGAAUAAGCAUGAAUGCUGGAGUGGACCAUUAUCCUCAAAUAUUCUAUGUCACUUCUCAUUUAAAGACUCUUGUUAUGAACUAUUAGAAUGGAAUUCUCGGGUGCCAA` — result for “RBNS enrichment (R)”: 1.24.
Under “RBNS enrichment (R)”, `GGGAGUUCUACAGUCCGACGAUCUGAAUAUAGAGACCAAGUUUACCACUUCUGAUGAAGAGACCAAUUAAGAUUCAUUCCUCAUUCUGUUUCUUUCCAGUGGGAGAAGAGUCCCCAUGAAAUAAGAUGAAACUUGGAAUUCUCGGGUGCCAA` is recorded as 0.258.
For `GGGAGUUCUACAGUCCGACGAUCCGUAGUAUGCAGCCAGUGGUUAGUUAUUACAAAGAUCCCUUAGUUACUGUAUUGUUUGCUUUCCUUAAGUGCAGUCAUCUCUGAUAGCUUGAGUGAUGGUGUUUCAAAUCUGGAAUUCUCGGGUGCCAA`, “RBNS enrichment (R)” read 0.289.
`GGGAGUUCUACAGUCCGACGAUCGCUCCUGGGUGGCUUUGUGUGAGGGGACUGAACGCAGACAAACCACAGCCUGCUUCUAAUACCUUCUUUCCCUACCACCUAGUUCCAAAUGGAACCAACAAGUUGAGUGCUGGAAUUCUCGGGUGCCAA`: “RBNS enrichment (R)” 0.279.

Some of these lines once more (sample 1):
`CGTGGTAA` gave an E-score of 0.054.
`TGCTAGCA` gave an E-score of -0.0209.
`TCCACGGA` has an E-score of 0.0794.
The E-score of `ACGCGAAT` is reported as 0.0724.
With `CACCCTCG` the E-score was -0.301.
For `AAACCTCG`, the E-score was -0.166.
With `ACGTTAAC` the E-score was 0.0935.
The E-score of `GCGGCTAA` is reported as -0.0727.
With `TCCCGTCA` the E-score was -0.0509.
